Experimental data gathered from unrelated publications.
Protocols differ between the studies behind these lines.
Organism: Staphylococcus aureus

SMILES	assay	system	setting	MIC
CCO[C@H]1[C@H](O)[C@@H](N)[C@@H](O[C@H]2[C@H](O[C@@H]3O[C@H](CO)[C@@H](O[C@H]4O[C@@H](CN)[C@@H](O)[C@H](O)[C@H]4N)[C@H]3O)[C@@H](O)[C@H](N)C[C@@H]2N)O[C@@H]1CO	broth microdilution	MRSA isolate AG 045	–	8 to 16 µg/mL
CN1C(=O)[C@@H]2NC(=O)[C@@H]3NC(=O)[C@@H](c4ccc(O)cc4)NC(=O)[C@H](NC(=O)C(N)c4ccc(O)cc4)Cc4c[nH]c5cc(ccc45)-c4cc3cc(c4O)Oc3ccc(cc3)C[C@H]1C(=O)N[C@@H](C(=O)NCCC[N+]1(C)CCCC1)c1ccc(O)c(c1)Oc1ccc2cc1 (stereo partly shown)	–	ATCC 33591 MRSA, Mueller-Hinton broth	–	> 128 µg/mL
COc1c(CC=C(C)C)c(O)cc2c1-c1oc3c(CC=C(C)C)c(O)ccc3c1CO2	–	–	–	inactive
CN1CCNC1=S.CN1CCNC1=S.O=[N+]([O-])[O-].[Ag+].c1ccc(P(c2ccccc2)c2ccccc2)cc1	agar dilution	MTCC 740	24 h, 37 °C	10 µg/mL
CC(C)[C@H](NC(=O)[C@@H](NC(=O)[C@H](CCCCN)NC(=O)CNC(=O)[C@@H](NC(=O)[C@@H](NC(=O)[C@H](CO)NC(=O)[C@@H](NC(=O)[C@@H](NC(=O)[C@@H]1CCCN1C(=O)[C@@H](NC(=O)[C@@H](NC(=O)CN)C(C)C)C(C)C)C(C)C)C(C)C)C(C)C)C(C)C)C(C)C)C(N)=O	broth microdilution	USA300 MRSA	–	> 100 µM
C/C(=N\NC(=N)N)c1nnn(-c2ccc(S(=O)(=O)NCCCCC(C)C)cc2)c1C	microbial growth, broth dilution	MRSA USA300	drug-resistant strain	> 64 µg/mL
CCCCCCCCCCCCC[C@@H](O)Cc1cc(O)cc(O)c1	microbial growth, broth dilution	USA300	drug-resistant strain	32 µg/mL
CC[C@H](C)[C@H](NC(=O)[C@@H](Cc1ccccc1)NC)C(=O)N[C@@H](CO)C(=O)N[C@H](CCC(N)=O)C(=O)N[C@@H](C(=O)N[C@H](C(=O)N[C@@H](CO)C(=O)N[C@H]1C(=O)N[C@@H](C)C(=O)N[C@@H](C2CCCCC2)C(=O)N[C@@H]([C@@H](C)CC)C(=O)O[C@H]1C)[C@@H](C)CC)[C@@H](C)CC	broth microdilution	ATCC 700698, MRSA, brain heart infusion broth	16 h, 37 °C	1 µg/mL
CC(C)CS[C@H]1[C@H](O)[C@@H](N)[C@@H](O[C@H]2[C@H](O[C@@H]3O[C@H](CO)[C@@H](O[C@H]4O[C@@H](CN)[C@@H](O)[C@H](O)[C@H]4N)[C@H]3O)[C@@H](O)[C@H](N)C[C@@H]2N)O[C@@H]1CO	–	methicillin-resistant, AAC(6') ANT(4',4'') APH(3')	–	2 µg/mL
NCCCC[C@H](NC(=O)[C@H](CCCCN)NC(=O)[C@H](Cc1ccccc1)NC(=O)[C@@H]1CCCN1C(=O)[C@H](Cc1c[nH]c2ccccc12)NC(=O)[C@H](Cc1c[nH]c2ccccc12)NC(=O)[C@H](Cc1c[nH]c2ccccc12)NC(=O)[C@@H]1CCCN1C(=O)[C@H](Cc1ccccc1)NC(=O)[C@H](CCCCN)NC(=O)[C@@H](N)CCCCN)C(N)=O	–	MRSA AMC 201, RPMI medium	24 h, 37 °C	30 µM
CC(C)C[C@@H]1NC(=O)[C@H](C)NC(=O)[C@H](C)NC(=O)[C@H](NC(=O)[C@H](CO)NC(=O)[C@@H](CCCCN)NC(=O)[C@@H](CC(C)C)NC(=O)[C@@H](N)Cc2ccccc2)[C@H](C(N)=O)OC1=O	–	MRSA ATCC 700698	TFA salt	4 µg/mL
CC(=O)N[C@@H](Cc1c[nH]c2ccccc12)C(=O)N[C@@H](Cc1c[nH]c2ccccc12)C(=O)N[C@@H](Cc1c[nH]c2ccccc12)C(=O)N[C@@H](Cc1c[nH]c2ccccc12)C(=O)NCCCC[C@@H]1NC(=O)[C@H](CCCNC(=N)N)NC(=O)[C@H](CCCNC(=N)N)NC(=O)[C@H](CCCNC(=N)N)NC(=O)[C@H](CCCNC(=N)N)NC(=O)[C@H](CCCNC(=N)N)NC1=O	broth microdilution	MRSA ATCC 43300	37 °C	53 µg/mL
COc1ccc2ccc3c(c2c1)C=[N+]1C2CCCCC2[N+]2=Cc4c(OC)cccc4[O][Au-]21[O]3.F[P-](F)(F)(F)(F)F (stereo not shown)	bacterial growth, broth microdilution	vancomycin-intermediate	24 h	> 20 µM
CC(C)[C@H](NC(=O)[C@H](CCCNC(=N)N)NC(=O)[C@H](CCCNC(=N)N)NC(=O)[C@@H](NC(=O)[C@H](C)NC(=O)[C@H](CC(N)=O)NC(=O)[C@H](CCCNC(=N)N)NC(=O)[C@@H](NC(=O)[C@H](CCCNC(=N)N)NC(=O)[C@H](CCCNC(=N)N)NC(=O)[C@@H](NC(=O)[C@@H](NC(=O)[C@H](CCCNC(=N)N)NC(=O)[C@H](CCCNC(=N)N)NC(=O)[C@H](Cc1c[nH]c2ccccc12)NC(=O)[C@H](Cc1c[nH]c2ccccc12)NC(=O)CN)[C@@H](C)O)C(C)C)C(C)C)C(C)C)C(=O)O	bacterial growth	MRSA clinical isolate	18 h	256 µg/mL
CCCCCCN1C(=O)/C(=N\NC(=N)N)c2cc(C)ccc21	broth microdilution	BAA41 MRSA	18 h, 37 °C	12 µg/mL
CC(CCCOC(=O)CCC[N+](C)(C)C)C1CCC2C3CCC4CC(OC(=O)CCC[N+](C)(C)C)CCC4(C)C3CCC12C (stereo not shown)	microbial growth	ATCCBAA44 MRSA	drug-resistant strain	9.7 µg/mL
CC[C@H](C)[C@H](NC(=O)[C@H](CCCN)NC(=O)[C@H](CC(N)=O)NC(=O)[C@H](CC(C)C)NC(=O)[C@H](Cc1ccccc1)NC(=O)[C@H](CCCN)NC(=O)[C@H](CCCCNC(=N)N)NC(=O)[C@H](CC(C)C)NC(=O)[C@H](CC(C)C)NC(=O)[C@H](CCCN)NC(=O)[C@H](CCCCNC(=N)N)NC(=O)[C@H](CC(C)C)NC(=O)CNC(C)=O)C(=O)N[C@@H](CCCN)C(=O)N[C@@H](CCCCNC(=N)N)C(N)=O	broth microdilution	multidrug-resistant	–	3.12 µM
C=C(NC(=O)C(=C)NC(=O)c1csc(C2=NC3c4csc(n4)C4NC(=O)c5csc(n5)C(C(C)(O)C(C)O)NC(=O)C5CSC(=N5)C(=CC)NC(=O)C(C(C)O)NC(=O)c5csc(n5)C3(CC2)NC(=O)C(C)NC(=O)C(=C)NC(=O)C(C(C)C)NC2C=Cc3c(C(C)O)cc(nc3C2O)C(=O)OC4C)n1)C(N)=O (stereo not shown)	broth microdilution	ATCC 10537 MRSA	18 h, 37 °C	> 5 µg/mL
COc1cc(/C=N/N2C(=O)c3ccccc3NC2c2cc(OC)c(O)c(OC)c2)cc(OC)c1O (stereo not shown)	microbial growth, broth dilution	–	24 h, drug-resistant strain, clinical isolate	> 256 µg/mL

Repeated from above:
SMILES	assay	system	setting	MIC
C/C(=N\NC(=N)N)c1nnn(-c2ccc(S(=O)(=O)NCCCCC(C)C)cc2)c1C	microbial growth, broth dilution	MRSA USA300	drug-resistant strain	> 64 µg/mL
CCCCCCCCCCCCC[C@@H](O)Cc1cc(O)cc(O)c1	microbial growth, broth dilution	USA300	drug-resistant strain	32 µg/mL
